Published values gathered from unrelated publications.
Each line is one published result; not all experiments were run side by side. Values joined by “and” are separate records of one study, mostly repeats; a detail may differ. Numbers after ± are the reported error.
STS: Steryl-sulfatase (STS, Homo sapiens, UniProt P08842)
Chain of UniProt P08842 (whole entry, looked up): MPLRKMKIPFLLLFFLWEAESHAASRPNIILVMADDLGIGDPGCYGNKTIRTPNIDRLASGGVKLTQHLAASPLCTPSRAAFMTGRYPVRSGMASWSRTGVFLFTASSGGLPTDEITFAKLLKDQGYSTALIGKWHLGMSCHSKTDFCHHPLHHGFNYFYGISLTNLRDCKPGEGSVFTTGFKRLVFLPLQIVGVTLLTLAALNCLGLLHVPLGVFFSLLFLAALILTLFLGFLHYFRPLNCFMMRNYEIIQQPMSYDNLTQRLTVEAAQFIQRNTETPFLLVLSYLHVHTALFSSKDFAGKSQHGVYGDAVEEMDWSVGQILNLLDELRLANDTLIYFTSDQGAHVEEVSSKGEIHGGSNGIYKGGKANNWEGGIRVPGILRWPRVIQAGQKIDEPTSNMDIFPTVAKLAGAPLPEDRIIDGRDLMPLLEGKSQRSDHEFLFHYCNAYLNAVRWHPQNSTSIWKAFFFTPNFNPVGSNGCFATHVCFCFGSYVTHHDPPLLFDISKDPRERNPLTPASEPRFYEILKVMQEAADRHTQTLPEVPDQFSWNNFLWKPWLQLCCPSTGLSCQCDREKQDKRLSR
Chain of UniProt Q15391 (whole entry, looked up): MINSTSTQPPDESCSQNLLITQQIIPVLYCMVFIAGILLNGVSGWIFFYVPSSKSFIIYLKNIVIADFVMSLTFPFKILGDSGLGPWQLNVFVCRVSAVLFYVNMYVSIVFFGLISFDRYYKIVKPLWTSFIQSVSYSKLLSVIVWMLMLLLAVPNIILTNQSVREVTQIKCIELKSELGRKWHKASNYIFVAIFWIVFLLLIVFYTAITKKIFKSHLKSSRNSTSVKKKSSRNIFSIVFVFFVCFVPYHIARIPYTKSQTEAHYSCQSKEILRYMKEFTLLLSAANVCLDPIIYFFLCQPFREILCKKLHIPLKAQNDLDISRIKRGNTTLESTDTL
Chain of UniProt Q9Y6K9 (whole entry, looked up): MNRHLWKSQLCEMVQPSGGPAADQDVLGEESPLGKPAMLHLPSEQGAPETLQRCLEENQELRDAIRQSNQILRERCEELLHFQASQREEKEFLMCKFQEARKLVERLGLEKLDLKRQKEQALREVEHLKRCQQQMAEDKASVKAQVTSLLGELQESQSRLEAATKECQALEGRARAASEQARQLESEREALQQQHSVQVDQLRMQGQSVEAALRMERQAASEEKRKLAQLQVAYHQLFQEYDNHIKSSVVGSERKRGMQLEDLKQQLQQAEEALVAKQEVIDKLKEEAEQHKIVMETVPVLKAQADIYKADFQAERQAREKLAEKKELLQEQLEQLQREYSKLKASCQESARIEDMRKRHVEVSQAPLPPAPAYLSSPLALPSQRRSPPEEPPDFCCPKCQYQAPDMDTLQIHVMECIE
Chain of UniProt O43353 (whole entry, looked up): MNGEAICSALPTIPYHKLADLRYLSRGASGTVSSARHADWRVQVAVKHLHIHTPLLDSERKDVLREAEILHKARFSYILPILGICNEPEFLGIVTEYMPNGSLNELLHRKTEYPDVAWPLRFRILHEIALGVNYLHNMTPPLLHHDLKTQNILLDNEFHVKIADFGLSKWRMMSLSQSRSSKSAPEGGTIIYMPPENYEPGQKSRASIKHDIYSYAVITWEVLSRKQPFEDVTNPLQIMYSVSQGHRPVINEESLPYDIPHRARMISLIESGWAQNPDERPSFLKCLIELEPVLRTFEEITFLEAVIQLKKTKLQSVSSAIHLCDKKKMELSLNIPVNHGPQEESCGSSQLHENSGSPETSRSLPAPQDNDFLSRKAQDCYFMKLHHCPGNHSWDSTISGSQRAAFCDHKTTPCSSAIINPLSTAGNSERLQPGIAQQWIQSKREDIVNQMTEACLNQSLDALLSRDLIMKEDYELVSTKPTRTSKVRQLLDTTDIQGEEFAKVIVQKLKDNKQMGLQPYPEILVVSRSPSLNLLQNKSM
Chain of UniProt Q13882 (whole entry, looked up): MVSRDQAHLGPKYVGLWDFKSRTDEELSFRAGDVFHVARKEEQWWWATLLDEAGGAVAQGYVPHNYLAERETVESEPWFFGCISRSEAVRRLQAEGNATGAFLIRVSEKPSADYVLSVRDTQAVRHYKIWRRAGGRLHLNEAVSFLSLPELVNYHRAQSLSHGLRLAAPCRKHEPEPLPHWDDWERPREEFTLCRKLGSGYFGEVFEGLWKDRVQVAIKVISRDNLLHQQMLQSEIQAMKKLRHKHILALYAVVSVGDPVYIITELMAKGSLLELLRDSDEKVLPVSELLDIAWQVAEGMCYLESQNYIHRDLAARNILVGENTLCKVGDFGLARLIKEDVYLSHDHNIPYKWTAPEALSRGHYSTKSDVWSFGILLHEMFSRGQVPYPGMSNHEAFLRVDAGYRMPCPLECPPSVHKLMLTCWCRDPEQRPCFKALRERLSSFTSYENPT
Chain of UniProt P00690 (whole entry, looked up): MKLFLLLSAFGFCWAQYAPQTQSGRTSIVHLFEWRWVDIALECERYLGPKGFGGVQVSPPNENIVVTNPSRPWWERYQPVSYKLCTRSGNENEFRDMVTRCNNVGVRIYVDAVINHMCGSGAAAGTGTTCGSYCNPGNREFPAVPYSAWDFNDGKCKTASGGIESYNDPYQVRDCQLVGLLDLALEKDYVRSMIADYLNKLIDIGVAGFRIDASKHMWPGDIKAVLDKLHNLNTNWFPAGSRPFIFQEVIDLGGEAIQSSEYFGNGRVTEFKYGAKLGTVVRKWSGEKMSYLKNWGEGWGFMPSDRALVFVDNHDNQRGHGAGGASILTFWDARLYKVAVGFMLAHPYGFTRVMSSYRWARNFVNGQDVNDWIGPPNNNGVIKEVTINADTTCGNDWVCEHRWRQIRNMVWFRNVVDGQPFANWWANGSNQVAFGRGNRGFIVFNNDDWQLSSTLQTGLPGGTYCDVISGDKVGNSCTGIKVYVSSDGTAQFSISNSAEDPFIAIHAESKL
Chain of UniProt P42336 (whole entry, looked up): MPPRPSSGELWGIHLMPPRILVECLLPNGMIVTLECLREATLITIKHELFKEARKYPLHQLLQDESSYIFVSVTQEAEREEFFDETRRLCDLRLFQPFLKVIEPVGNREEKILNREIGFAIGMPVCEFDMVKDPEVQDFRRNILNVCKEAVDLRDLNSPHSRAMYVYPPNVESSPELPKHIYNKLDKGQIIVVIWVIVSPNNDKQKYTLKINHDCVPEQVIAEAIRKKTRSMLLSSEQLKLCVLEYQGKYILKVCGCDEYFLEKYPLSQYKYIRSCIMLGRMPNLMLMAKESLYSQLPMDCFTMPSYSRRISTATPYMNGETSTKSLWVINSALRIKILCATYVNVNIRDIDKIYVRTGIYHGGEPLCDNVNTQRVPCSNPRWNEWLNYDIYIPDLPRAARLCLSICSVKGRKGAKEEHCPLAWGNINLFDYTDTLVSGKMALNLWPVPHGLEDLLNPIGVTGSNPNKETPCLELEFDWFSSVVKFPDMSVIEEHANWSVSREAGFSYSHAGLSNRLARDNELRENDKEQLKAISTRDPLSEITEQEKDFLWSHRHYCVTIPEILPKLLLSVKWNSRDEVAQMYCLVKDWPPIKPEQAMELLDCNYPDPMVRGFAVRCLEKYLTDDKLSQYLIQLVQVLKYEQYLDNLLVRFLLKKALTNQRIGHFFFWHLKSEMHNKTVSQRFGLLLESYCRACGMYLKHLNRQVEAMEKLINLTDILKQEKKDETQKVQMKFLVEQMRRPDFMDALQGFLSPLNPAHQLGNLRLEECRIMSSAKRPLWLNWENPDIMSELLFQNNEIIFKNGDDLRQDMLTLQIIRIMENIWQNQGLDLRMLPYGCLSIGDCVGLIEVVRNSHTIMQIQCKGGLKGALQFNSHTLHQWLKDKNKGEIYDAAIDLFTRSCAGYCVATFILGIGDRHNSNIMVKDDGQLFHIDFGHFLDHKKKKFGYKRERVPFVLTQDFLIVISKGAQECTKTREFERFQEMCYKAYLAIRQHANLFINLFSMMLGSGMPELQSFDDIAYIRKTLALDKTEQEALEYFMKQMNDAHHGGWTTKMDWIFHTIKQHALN
Chain of UniProt Q8IUQ4 (81-282, looked up): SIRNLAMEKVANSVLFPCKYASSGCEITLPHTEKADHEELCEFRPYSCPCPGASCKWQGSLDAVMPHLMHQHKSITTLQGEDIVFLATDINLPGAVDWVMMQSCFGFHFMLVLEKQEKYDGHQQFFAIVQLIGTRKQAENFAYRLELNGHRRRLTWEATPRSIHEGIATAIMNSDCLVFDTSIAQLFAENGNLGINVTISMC
Chain of UniProt P18031 (whole entry, looked up): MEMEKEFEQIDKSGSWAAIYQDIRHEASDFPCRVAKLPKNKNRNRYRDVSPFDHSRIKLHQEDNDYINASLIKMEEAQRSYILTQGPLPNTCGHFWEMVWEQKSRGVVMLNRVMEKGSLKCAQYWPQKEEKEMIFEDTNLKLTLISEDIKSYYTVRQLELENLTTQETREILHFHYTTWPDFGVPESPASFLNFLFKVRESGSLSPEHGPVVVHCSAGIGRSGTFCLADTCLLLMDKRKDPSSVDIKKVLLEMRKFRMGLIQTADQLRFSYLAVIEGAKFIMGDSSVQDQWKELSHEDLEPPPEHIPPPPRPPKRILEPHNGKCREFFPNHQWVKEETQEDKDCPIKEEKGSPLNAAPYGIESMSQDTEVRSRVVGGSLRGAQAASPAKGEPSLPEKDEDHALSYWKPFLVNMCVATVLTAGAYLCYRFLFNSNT
Chain of UniProt P37353 (whole entry, looked up): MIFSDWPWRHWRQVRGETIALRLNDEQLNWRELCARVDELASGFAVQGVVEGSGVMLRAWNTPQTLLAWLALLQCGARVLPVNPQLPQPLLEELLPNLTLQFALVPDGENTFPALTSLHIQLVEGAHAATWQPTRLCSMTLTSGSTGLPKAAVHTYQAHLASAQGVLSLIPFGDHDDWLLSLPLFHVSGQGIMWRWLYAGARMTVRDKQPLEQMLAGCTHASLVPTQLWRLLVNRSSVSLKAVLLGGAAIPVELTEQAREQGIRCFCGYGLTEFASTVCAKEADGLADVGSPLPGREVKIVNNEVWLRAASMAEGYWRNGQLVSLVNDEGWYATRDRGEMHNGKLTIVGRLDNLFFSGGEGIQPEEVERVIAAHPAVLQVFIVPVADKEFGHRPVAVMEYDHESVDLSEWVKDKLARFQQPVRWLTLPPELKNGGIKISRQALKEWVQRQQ

`O=C(CCc1nc2c(cnn2-c2ccccc2)c(=O)[nH]1)N1CCC2CCCCC2C1` (stereo not drawn) has an IC50 of 13.5 ± 0.3 µM (DNA gyrase subunit B (gyrB, Escherichia coli, UniProt P0AES6); enzyme activity, inhibitor).
For `O[C@H]1[C@H](O)[C@@H](O)c2[nH]cnc2[C@@H]1O`, the IC50 was greater than 100 µM (β-glucosidase (sweet almond); inhibitor).
For `COc1ccc(C=CC(=O)c2cccc(O)c2)cc1`, the IC50 was 0.81 µM (Estrogen receptor (ESR1, Homo sapiens, UniProt P03372); coactivator recruitment, antagonist).
`CC(=O)C1=C(C)NC(=O)NC1c1ccc([N+](=O)[O-])cc1` (stereo not drawn) has an IC50 of 71 µM (Pancreatic alpha-amylase (AMY2, Sus scrofa, UniProt P00690); enzyme activity, inhibitor).
`COc1ccc(/C=C2\SC(=S)NC2=O)c(O)c1` has an IC50 of 4.4 µM (Phosphatidylinositol 4,5-bisphosphate 3-kinase catalytic subunit alpha isoform (PIK3CA, Homo sapiens, UniProt P42336); enzyme activity, inhibitor, radiometric).
`CCCCCCCCCCCCCCCCC1=C[C@@H](C(=O)O)[C@H]2C(=O)C(C(=O)OC)=C(CCCCCCCCCCCCCCCC)[C@H]2[C@H]1C(=O)OC` has an IC50 of greater than 50 µM (protein kinase A; inhibitor).
With `CCC(=O)N1CC=C(c2cc3c(Nc4cc5ncsc5cc4F)ncnc3s2)CC1` the IC50 was 0.014 µM (Receptor-interacting serine/threonine-protein kinase 2 (RIPK2, Homo sapiens, UniProt O43353); enzyme activity, inhibitor).
For `COc1cccc(Cc2cc(C)nn(S(=O)(=O)c3cccc4c(N(C)C)cccc34)c2=O)c1`, the IC50 was 17.7 µM (fMet-Leu-Phe receptor (FPR1, Homo sapiens, UniProt P21462); calcium signal, antagonist).
`CNC(=O)C1CCN(c2ccccc2NC(=O)c2ccc(-c3cc(O)ccc3C)cc2)CC1` gave an IC50 of greater than 50 µM (Tyrosine-protein kinase Fgr (FGR, Homo sapiens, UniProt P09769); target engagement, NanoBRET; intact cells).
`COC(=O)C1C(c2nc3ncccc3[nH]2)=Cc2cc3c(cc2C1c1cc(OC)c(OC)c(OC)c1)OCO3` (stereo not drawn) has an IC50 of 0.3 µM and 0.31 µM (tubulin alpha/beta (Leishmania infantum, UniProt A0A381MCS3+A4HTR0); tubulin polymerization, inhibitor; 37 °C).
`C=CC(=O)NCCCC[C@H](NC(=O)[C@@H]1CCCN1C(=O)[C@H](CCCNC(=N)N)NC(=O)[C@@H](NC(=O)[C@H](CCSC)NC(=O)[C@H](C)NC(=O)[C@@H](NC(=O)[C@@H]1CCCN1C(=O)[C@H](CCCNC(=N)N)NC(=O)[C@H](CC(C)C)NC(=O)[C@H](CCCCN)NC(=O)[C@H](CCC(N)=O)NC(=O)[C@@H]1CCCN1C(=O)[C@H](CCCNC(=N)N)NC(=O)[C@H](CCCNC(=N)N)NC(=O)[C@H](CCCNC(=N)N)NC(=O)[C@H](CCC(N)=O)NC(=O)[C@H](CCCNC(=N)N)NC(=O)[C@H](CCCNC(=N)N)NC(=O)[C@H](CCCCN)NC(=O)[C@H](CCCCN)NC(=O)[C@H](CCCNC(=N)N)NC(=O)CNC(C)=O)C(C)C)C(C)C)C(=O)N[C@H](C(=O)N[C@@H](CCCNC(=N)N)C(N)=O)C(C)C` gave an IC50 of 0.1 µM (E3 ubiquitin-protein ligase SIAH1, part residues 81-282 (SIAH1, Homo sapiens, UniProt Q8IUQ4)).
For `Nc1ccc(-c2cc(Cl)c(Cl)c3[nH]c4c(c23)CN(C(=O)CO)CC4)cn1`, the IC50 was 0.076 µM (Cyclic GMP-AMP synthase (Cgas, Mus musculus, UniProt Q8C6L5, I309T); enzyme activity, inhibitor, mass spectrometry).
The IC50 of `CC(=O)N[C@@H](CC(C)C)C(=O)N[C@H](C(=O)N[C@@H](Cc1ccccc1)C(=O)N[C@H]1CSCc2ccc(cn2)-c2ccc(nc2)CSC[C@@H](C(=O)N[C@@H](CO)C(=O)NCCCNCCCCNCCCN)NC(=O)[C@H](CC(C)C)NC(=O)[C@H](CCC(N)=O)NC(=O)[C@H](C)NC(=O)[C@H](Cc2c[nH]c3ccccc23)NC(=O)[C@H](Cc2ccc(O)cc2)NC(=O)[C@H](Cc2c[nH]cn2)NC1=O)[C@@H](C)O` is reported as 0.046 ± 0.006 µM (E3 ubiquitin-protein ligase Mdm2, with p53 (MDM2, Homo sapiens, UniProt Q00987); binding, inhibitor, ELISA).
The IC50 of `CCC(=O)N1CCC(NC(=O)NC23CC4CC(C)(CC(C)(C4)C2)C3)CC1` is reported as 0.0052 µM (Bifunctional epoxide hydrolase 2 (Ephx2, Mus musculus, UniProt P34914); enzyme activity, inhibitor, fluorescence).
For `O=C1O[C@H]([C@@H](O)c2ccc(O)cc2)c2cccc(O)c21`, the IC50 was greater than 100 µM (Tyrosine-protein phosphatase non-receptor type 1 (PTPN1, Homo sapiens, UniProt P18031); enzyme activity, inhibitor, absorbance).
For `CCNC(=O)[C@H]1O[C@@H](n2cnc3c(NCCCCNC(=O)CCCCCNC(=O)CCC4=[N+]5C(=Cc6c(C)cc(C)n6[B-]5(F)F)C=C4)ncnc32)[C@H](O)[C@@H]1O`, the IC50 was greater than 100 µM (Adenosine receptor A1 (ADORA1, Homo sapiens, UniProt P30542); ligand displacement in cells, radioligand).
With `Cc1cn(CC(O)CN2CCc3ccccc3C2C)c2ccccc12` (stereo not drawn) the IC50 was 1.56 µM (Protein arginine N-methyltransferase 5 (PRMT5, Homo sapiens, UniProt O14744); enzyme activity, inhibitor, radiometric).
With `Oc1cccc(Nc2ncnc3[nH]c4cc(Br)ccc4c23)c1` the IC50 was 1 µM (Protein-tyrosine kinase 6 (PTK6, Homo sapiens, UniProt Q13882); enzyme activity, inhibitor, ADP detection).
For `CN(C)CCCCCCNc1nc(NCCCCCN(C)C)nc2ccc(NC(=O)CCl)cc12`, the IC50 was 12 ± 4.5 µM (Histone-lysine N-methyltransferase SETDB1, triple tudor domain (SETDB1, Homo sapiens, UniProt Q15047, C385A); binding, TR-FRET displacement; 1 h, room temperature).
With `CCOC(=O)C(CC)NC(=O)CN1C(=O)S/C(=C\c2ccc(C)cc2)C1=O` (stereo not drawn) the IC50 was greater than 100 µM (α-amylase; enzyme activity, DNSA colorimetric).
With `N=C(N)NCCCC(N)C(=O)NCC(=O)NC(CCCNC(=N)NCCSCC1OC(n2cnc3c(N)ncnc32)C(O)C1O)C(N)=O` (stereo not drawn) the IC50 was greater than 100 µM (Histone-lysine N-methyltransferase EHMT2 (EHMT2, Homo sapiens, UniProt Q96KQ7); enzyme activity, inhibitor, fluorescence).
With `Oc1cc(O)c2c(c1)O[C@H](c1ccc(O)c(O)c1)[C@H](O)[C@H]2c1c(O)cc2c(c1O)C[C@@H](O)[C@@H](c1ccc(O)c(O)c1)O2` the IC50 was 1.6 ± 0.4 µM (alpha-glucosidase (Bacillus stearothermophilus); inhibitor; 20 min, pH 6.8, 60 °C, added: pNPG substrate).
The IC50 of `COc1ccc2c(c1)c1c(n2CO)CN2CCc3cc(OC)c(OCc4ccccc4)cc3C2C1` (stereo not drawn) is reported as 40.8 µM (5-hydroxytryptamine receptor 1B (HTR1B, Homo sapiens, UniProt P28222); ligand displacement in cells, radioligand).
For `O=C(O)CCSc1cc(-c2ccccc2)nc(SCCC(=O)O)n1`, the IC50 was < 0.01 µM and 0.00535 µM (P2Y purinoceptor 14 (P2RY14, Homo sapiens, UniProt Q15391); antagonist).
With `CN(Cc1cc(C2CC2)on1)C(=O)c1cccc(-c2ccc(Cl)cc2)c1` the IC50 was 3 µM (Acetyl-CoA synthetase (Cryptococcus neoformans, UniProt J9VFT1)).
The IC50 of `O=C(NC(=S)Nc1nc(-c2ccccc2)cc(-c2ccc(Cl)cc2)n1)c1ccc(Cl)cc1` is reported as 1.51 ± 0.039 µM (α-amylase; enzyme activity, inhibitor; pH 6.9, added: starch).
`N#Cc1ccc(N(Cc2ccc(OS(N)(=O)=O)cc2Cl)n2cnnc2)cc1` gave an IC50 of 0.01 to 0.1 µM (STS; enzyme activity, inhibitor; JEG-3 intact monolayers).
With `Cc1cc(NC(=O)c2cccc(-n3cc(NC(=O)Nc4ccc(F)cc4)cn3)c2)ccn1` the IC50 was 2.04 ± 0.449 µM (Mitogen-activated protein kinase 10, isoform alpha-1 (MAPK10, Homo sapiens, UniProt P53779, L144I); enzyme activity, inhibitor, HTRF; added: 1.25 µM ATP).
`NS(=O)(=O)Oc1ccc2c3c(c(=O)oc2c1)CCCCCC3` gave an IC50 of 0.0009 µM (STS; enzyme activity in cells, inhibitor).
For `Nc1c2nc(Br)n3c2nc[n+]1[C@@H]1O[C@H](COP(=O)(O)OP(=O)([O-])OC[C@H]2O[C@@H]3[C@H](O)[C@@H]2O)[C@@H](O)[C@H]1O`, the IC50 was 0.97 µM (cADPR receptor, sea urchin; cADPR-induced Ca2+ release, antagonist, fluo-3 fluorimetry; sea urchin egg homogenate).
`Nc1ncnc2c1ncn2C1OC(COc2cccc(CCC(=O)c3ccccc3C(=O)O)c2)C(O)C1O` (stereo not drawn) gave an IC50 of 8 µM (2-succinylbenzoate--CoA ligase (menE, Escherichia coli, UniProt P37353); enzyme activity, inhibitor, MenB-MenE coupled).
`CC[C@H](C)[C@@H]1NC(=O)[C@H](Cc2c[nH]c3ccccc23)NC(=O)CNC(=O)c2cc3cc(c2)C(=O)NC[C@@H](C(=O)NCCC(=O)NCCC(=O)N[C@@H](CCCCN)C(N)=O)NC(=O)[C@H](CCCNC(=N)N)NC(=O)[C@@H](CCCNC(=N)N)NC(=O)[C@H](CCCNC(=N)N)NC(=O)[C@H](Cc2ccc4ccccc4c2)NC(=O)[C@H](Cc2ccccc2)NC(=O)[C@H](CNC3=O)NC(=O)[C@H](C)NC(=O)[C@H](C)NC1=O` gave an IC50 of 2.8 ± 0.3 µM (NF-kappa-B essential modulator, with IKK-beta (IKBKG, Homo sapiens, UniProt Q9Y6K9); inhibitor, HTRF).
`COc1cc(O)ccc1CC[C@H](c1ccc(O)cc1)c1cc2c(c(C)c1O)O[C@H](c1ccc(O)cc1)CC2` gave an IC50 of 1.7 µM (Polyunsaturated fatty acid 5-lipoxygenase (ALOX5, Homo sapiens, UniProt P09917); 5-LO product formation; human PMNL; added: A23187).

Repeated from above:
For `CCNC(=O)[C@H]1O[C@@H](n2cnc3c(NCCCCNC(=O)CCCCCNC(=O)CCC4=[N+]5C(=Cc6c(C)cc(C)n6[B-]5(F)F)C=C4)ncnc32)[C@H](O)[C@@H]1O`, the IC50 was greater than 100 µM (Adenosine receptor A1 (ADORA1, Homo sapiens, UniProt P30542); ligand displacement in cells, radioligand).
With `Cc1cn(CC(O)CN2CCc3ccccc3C2C)c2ccccc12` (stereo not drawn) the IC50 was 1.56 µM (Protein arginine N-methyltransferase 5 (PRMT5, Homo sapiens, UniProt O14744); enzyme activity, inhibitor, radiometric).
